Results collected from several papers.
A part holds a random share of what one study measured. Changes are numbered by the printed parent chain.

Block 1 — target: CCNB2, cyclin fold, Cln2 fusion (human); method: yeast growth competition, sequencing; medium: yeast; notes: weak parent motif; baseline: not given; reading: higher = stronger binding; endpoint: normalised enrichment score
Starting sequence: SLBP docking peptide (human); ARYKRKLLINDFG; partner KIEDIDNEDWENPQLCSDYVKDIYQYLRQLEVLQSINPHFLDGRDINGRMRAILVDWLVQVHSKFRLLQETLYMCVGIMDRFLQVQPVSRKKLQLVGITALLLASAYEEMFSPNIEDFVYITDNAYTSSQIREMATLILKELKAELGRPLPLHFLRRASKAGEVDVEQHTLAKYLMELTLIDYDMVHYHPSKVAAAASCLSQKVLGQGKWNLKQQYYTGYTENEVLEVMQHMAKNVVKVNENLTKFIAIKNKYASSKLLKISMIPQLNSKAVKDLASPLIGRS
ARYKTKLLINDFG [R5T]: 0.383
ARYKRNLLINDFG [K6N]: 0.544
ARYHRKLLINDFG [K4H]: 0.825
ARYKRKLHINDFG [L8H]: 0.446
ARYKRKLLINGFG [D11G]: 0.658

Block 2 — method: universal PBM; molecule type: double-stranded DNA, one strand shown; medium: in vitro; concentration: not given; reading: higher = stronger binding; endpoint: E-score
Target: Sal-like protein 4, full length isoform B (SALL4, Homo sapiens, UniProt Q9UJQ4-2, residues 1-616)
Notes: 8-mer, flanks averaged, mean of replicates
AAACAGCC: -0.173
CCCTGGTC: -0.322
AAGGCGGT: -0.119
GTCACTCA: -0.128
GCAACGCC: -0.203

Block 3 — method: RNA Bind-n-Seq; molecule type: RNA; medium: in vitro; concentration: 365 nM; baseline: no-protein control; reading: higher = stronger binding; endpoint: RBNS enrichment (R)
Target: RNA binding protein fox-1 homolog 2, RRM domain, GST-SBP tag (RBFOX2, Homo sapiens, UniProt O43251-10, residues 100-194)
Notes: natural RNA segment, single round, ends assumed
Shared flanks, not repeated: GGGAGUUCUACAGUCCGACGAUC … UGGAAUUCUCGGGUGCCAA
Target sequence (chain): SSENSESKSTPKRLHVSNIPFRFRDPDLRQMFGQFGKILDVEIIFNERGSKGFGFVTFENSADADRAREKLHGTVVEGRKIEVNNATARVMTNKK
AUUUUCAGAGGAAAGAACAUUUUAUGAGGCUUUCUCUAAAGUUUCCUUUGUAUAGGAGUAUGCUCACUUAAAUUUACAGAAAGAGGUGAGCUGUGUUAAACCUCAGAGUU: 0.331
GAAGAAGUUGGAGGAUGGUGCUGAAUGCAGUUUUGUUUAUUCCAAGAAAAAAUAUUUAUAAUAAAAUCAUUUGUAGGAAGAUGUUUAAGAAGUUAGGAAAUUCAGUUUGU: 1.21
AUCUAUAUUUUUUUAGGAAAACAGAAAUUGAAAAAUUUAUCCCAUUGGGGCAUUUAAAGCUACUCUUCUUUCUUCUUCCUCUCUUGACCACAUCCUAGACCCAGUUCCAU: 0.787
GAAACCUUGCAGAUUGCAGAGUUGAGAUGUGUUUUAUCUUUGUUUUAUAUUAAAAAGAUCUGUGGGAAAAUAAAGCCAGCCCUUGUUUUGGAUGUGUUGUUUCUGAAACC: 0.478
CUUAAGUGUGAGACUUGGGUGGAUGGGAAAGUUAAAUAUUGGUCUCUUCAAGUUUUUUUUUUCUUUUGCUUUGUUACCACUUGUCACUGUCUCCAUGUUAAAAUGCCAAA: 1.41
UUUCCCCUGUCCUGAUGGUCAGCUCCCUUCUCUGUAGGGAACUCUGGGGUCCCCCAUCCCCAUCCUCCAGCUUCUGGUACUCUCCUAGAGACAGAAGCAGGCUGGAGGUA: 0.257
AGGAGCUGAACCUUAUUAGGUUGGAUGUCGAUCAGGAACCUGUUUGCCCUUUGCUGGGAAGCCUUCACUCUCCAGCUUUCCUGGGGUAGGGAAGGUCUCCCACAUUAUGC: 0.293

Further values, each from its own experiment
PhoQ, residues 284 288 289 292 302 303 TLASMF  fold induction (PhoP, residues 12 14 15 18 19 TTLRV (Escherichia coli, UniProt P23836); Sort-seq, refers to: YFP reporter; E. coli; PhoQ-PhoP variant library, with: 10 µM Mg2+; baseline: high Mg2+ state, higher = stronger signaling): 1.52
